Assay results from different studies.
Every numbered part comes from another study and shows a few of its results, in no order. Several values in a cell are separate wells, animals, samples, runs or records.
Chain of UniProt O75417 (whole entry, unmodified, looked up): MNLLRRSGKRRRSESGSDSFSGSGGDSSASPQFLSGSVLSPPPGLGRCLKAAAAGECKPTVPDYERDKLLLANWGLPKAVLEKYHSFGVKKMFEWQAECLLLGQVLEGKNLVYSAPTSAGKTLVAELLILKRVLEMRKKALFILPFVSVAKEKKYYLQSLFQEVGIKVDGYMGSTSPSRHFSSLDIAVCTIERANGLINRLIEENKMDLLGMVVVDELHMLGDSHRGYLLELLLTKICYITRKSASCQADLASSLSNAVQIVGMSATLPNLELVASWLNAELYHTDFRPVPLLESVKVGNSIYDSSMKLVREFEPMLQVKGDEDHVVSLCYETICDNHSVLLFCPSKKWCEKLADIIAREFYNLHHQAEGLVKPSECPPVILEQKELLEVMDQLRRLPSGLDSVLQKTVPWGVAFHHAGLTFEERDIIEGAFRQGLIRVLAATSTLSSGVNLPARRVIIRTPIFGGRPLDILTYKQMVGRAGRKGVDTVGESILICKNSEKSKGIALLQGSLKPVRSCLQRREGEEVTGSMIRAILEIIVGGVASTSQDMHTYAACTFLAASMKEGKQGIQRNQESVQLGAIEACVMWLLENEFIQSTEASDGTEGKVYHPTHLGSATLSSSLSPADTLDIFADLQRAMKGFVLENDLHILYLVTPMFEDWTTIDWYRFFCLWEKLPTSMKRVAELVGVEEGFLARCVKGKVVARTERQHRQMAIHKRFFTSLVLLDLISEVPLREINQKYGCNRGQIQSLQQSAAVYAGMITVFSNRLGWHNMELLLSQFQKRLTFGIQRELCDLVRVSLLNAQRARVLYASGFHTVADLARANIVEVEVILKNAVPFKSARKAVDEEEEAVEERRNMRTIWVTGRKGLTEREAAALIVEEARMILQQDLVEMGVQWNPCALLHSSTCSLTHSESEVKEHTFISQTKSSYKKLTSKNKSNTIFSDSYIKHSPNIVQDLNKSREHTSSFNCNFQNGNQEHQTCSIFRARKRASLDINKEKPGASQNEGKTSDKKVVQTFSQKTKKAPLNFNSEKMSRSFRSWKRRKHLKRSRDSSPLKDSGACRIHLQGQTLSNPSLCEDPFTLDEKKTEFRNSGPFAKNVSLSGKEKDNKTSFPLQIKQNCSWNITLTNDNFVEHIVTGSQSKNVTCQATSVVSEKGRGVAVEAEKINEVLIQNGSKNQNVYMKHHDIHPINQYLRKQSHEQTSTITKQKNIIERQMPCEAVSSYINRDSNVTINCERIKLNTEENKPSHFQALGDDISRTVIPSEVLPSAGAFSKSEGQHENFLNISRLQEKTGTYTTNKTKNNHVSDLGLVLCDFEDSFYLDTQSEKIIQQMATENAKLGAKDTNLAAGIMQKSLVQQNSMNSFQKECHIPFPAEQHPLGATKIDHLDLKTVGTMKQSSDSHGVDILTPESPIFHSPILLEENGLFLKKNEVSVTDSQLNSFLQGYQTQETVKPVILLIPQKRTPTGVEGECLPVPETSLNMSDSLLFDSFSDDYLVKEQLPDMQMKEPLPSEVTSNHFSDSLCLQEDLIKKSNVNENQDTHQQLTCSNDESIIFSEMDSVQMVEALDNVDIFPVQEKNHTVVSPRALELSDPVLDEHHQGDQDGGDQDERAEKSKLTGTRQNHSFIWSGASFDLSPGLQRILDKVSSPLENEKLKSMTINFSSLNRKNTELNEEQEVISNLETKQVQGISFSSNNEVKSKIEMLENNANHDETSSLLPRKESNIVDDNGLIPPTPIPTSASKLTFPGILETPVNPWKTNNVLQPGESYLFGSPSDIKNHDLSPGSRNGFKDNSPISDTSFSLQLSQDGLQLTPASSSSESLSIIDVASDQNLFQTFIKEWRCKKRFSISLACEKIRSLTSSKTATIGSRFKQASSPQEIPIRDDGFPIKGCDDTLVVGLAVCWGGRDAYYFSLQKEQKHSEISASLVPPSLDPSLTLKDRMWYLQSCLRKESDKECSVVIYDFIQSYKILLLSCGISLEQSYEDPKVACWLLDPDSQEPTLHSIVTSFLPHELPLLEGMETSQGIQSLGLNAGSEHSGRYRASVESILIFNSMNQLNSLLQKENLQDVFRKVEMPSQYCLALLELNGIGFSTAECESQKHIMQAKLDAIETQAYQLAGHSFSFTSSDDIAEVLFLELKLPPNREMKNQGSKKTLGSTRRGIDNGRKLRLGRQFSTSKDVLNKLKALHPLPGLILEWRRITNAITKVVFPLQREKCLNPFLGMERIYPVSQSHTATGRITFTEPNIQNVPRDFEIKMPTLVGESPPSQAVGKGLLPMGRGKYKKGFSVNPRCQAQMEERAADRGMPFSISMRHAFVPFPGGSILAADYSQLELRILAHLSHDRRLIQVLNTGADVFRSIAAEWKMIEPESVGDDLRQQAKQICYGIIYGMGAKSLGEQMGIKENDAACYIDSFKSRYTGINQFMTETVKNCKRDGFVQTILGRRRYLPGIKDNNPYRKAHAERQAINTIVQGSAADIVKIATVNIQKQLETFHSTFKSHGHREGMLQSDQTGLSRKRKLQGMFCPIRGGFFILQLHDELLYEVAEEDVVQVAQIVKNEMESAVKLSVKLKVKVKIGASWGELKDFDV
Chain of UniProt P29376 (whole entry, looked up): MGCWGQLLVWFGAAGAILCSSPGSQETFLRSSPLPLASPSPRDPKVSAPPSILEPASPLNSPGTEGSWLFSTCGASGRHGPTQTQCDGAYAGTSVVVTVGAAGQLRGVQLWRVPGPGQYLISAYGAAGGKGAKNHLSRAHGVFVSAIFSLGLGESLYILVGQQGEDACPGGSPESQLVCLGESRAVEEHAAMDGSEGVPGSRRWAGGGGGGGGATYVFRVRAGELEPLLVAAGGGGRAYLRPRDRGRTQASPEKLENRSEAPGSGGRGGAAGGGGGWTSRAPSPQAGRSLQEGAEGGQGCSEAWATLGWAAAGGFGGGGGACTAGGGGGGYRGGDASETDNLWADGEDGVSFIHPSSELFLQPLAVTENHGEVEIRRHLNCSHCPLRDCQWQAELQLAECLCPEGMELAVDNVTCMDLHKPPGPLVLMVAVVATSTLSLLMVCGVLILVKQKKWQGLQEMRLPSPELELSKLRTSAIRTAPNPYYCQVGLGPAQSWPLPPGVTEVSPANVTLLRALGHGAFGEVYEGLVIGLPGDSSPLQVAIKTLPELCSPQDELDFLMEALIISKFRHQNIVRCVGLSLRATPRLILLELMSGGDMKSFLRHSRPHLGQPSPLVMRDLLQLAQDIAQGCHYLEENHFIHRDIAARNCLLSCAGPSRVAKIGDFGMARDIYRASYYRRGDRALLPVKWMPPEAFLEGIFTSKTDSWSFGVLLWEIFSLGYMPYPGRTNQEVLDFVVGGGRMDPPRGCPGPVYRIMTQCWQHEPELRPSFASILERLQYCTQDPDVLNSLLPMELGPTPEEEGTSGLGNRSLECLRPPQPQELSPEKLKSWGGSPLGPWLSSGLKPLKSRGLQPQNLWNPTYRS
Chain of UniProt P9WI81 (whole entry, looked up): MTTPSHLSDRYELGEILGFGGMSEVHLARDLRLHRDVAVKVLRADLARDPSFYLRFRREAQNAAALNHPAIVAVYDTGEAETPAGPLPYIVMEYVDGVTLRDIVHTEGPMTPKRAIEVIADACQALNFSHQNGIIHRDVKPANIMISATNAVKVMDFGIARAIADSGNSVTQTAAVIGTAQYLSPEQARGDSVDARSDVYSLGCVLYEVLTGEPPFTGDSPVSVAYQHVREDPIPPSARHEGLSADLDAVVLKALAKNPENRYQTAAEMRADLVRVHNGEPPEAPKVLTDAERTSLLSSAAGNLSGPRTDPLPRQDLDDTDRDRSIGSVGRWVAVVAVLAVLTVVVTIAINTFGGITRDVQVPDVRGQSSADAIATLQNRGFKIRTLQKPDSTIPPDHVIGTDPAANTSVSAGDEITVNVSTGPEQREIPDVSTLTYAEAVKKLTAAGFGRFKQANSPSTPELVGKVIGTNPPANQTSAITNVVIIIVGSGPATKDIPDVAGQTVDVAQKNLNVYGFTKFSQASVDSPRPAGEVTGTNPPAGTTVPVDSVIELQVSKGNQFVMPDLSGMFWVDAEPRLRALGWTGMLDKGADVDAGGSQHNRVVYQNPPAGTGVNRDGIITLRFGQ

Series 1 — species: human; medium: microsomes or S9; concentration: 2 µM; time: 0.5 h
SMILES	remaining compound [%]
O=S(=O)(CC1C(c2ccccc2)N1c1ccccc1)c1ccccc1 (stereo not shown)	7.64
CC(C)CCC1(CN2CCCC2=O)C(=O)NC(=O)NC1=O	93.9
c1cc2c(cn1)CN(c1ncnc3sc4c(c13)CCCC4)C2	0.648

Further values, each from its own experiment
SMILES	target	assay	setting	scale	quantity	value
CN[C@@H]1C[C@H]2O[C@@](C)([C@@H]1OC)n1c3ccccc3c3c4c(c5c6ccccc6n2c5c31)C(=O)NC4	FLT3 (Homo sapiens, UniProt P36888)	enzyme activity, inhibitor	0.5 µM	relative to: control	remaining activity	2.41% and 1.12%
CCOC(=O)c1cc2cc(-c3cc(C(=O)NCc4ccc(C(=O)O)cc4)nn3C)ccc2[nH]1	CRK2 (Plasmodium falciparum, UniProt P61075)	cell-free assay, competition with immobilised ligand	0.1 µM	–	remaining binding	65%
CO[C@@H]1[C@H](N(C)C(=O)c2ccccc2)C[C@H]2O[C@]1(C)n1c3ccccc3c3c4c(c5c6ccccc6n2c5c31)C(=O)NC4	LTK (Homo sapiens, UniProt P29376)	enzyme activity, inhibitor	1 µM	–	inhibition	20%
O=C(O)[C@H]1[C@H](Cn2nnc3ccccc3c2=O)CC[C@@H]1C(=O)c1ccc(OCCC2CCOCC2)cc1	pknB (Mycobacterium tuberculosis, UniProt P9WI81)	cell-free assay, competition with immobilised ligand	1 µM	–	remaining binding	77%
COC(=O)[C@H]1[C@H](c2ccccc2)[C@]2(c3ccc(OC)cc3)Oc3cc(OC)cc(OC)c3[C@@]1(O)C2O (stereo partly shown)	EIF4A1 (Homo sapiens, UniProt P60842)	RNA clamping, fluorescence polarization	concentration not given, together with: FAM-labelled poly r(AG)8 RNA	higher = more clamping	fluorescence polarization change	0.1 mP
Cn1nc(C(=O)NCc2ccc(C(=O)O)cc2)cc1-c1ccc2[nH]ccc2c1	CDPK1 (Plasmodium falciparum, UniProt P62344)	cell-free assay, competition with immobilised ligand	0.1 µM	–	remaining binding	73%
C[N+]1(C)CCO[C@@](O)(c2ccc(-c3ccc([C@@]4(O)C[N+](C)(C)CCO4)cc3)cc2)C1	DNA polymerase theta, ATPase domain (POLQ, Homo sapiens, UniProt O75417)	enzyme activity, inhibitor	77 µM	relative to: untreated	remaining activity	115%

Repeated from above (series 1):
SMILES	remaining compound [%]
c1cc2c(cn1)CN(c1ncnc3sc4c(c13)CCCC4)C2	0.648
